Results gathered from unrelated publications.
Each line is one published result; not all experiments were run side by side. ± gives the spread as reported.
Chain of UniProt P29371 (whole entry, looked up): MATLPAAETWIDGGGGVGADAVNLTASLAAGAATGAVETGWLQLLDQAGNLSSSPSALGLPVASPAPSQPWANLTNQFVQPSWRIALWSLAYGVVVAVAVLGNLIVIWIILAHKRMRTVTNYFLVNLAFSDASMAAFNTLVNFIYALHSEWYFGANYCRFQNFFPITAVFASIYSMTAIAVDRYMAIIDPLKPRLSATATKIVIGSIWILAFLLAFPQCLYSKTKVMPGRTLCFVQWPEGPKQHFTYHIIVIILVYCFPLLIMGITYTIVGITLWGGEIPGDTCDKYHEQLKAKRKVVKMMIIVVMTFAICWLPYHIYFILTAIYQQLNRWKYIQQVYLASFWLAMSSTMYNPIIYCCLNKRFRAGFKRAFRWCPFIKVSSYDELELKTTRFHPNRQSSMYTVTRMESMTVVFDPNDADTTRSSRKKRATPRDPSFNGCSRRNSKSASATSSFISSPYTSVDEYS
Chain of UniProt P50750 (whole entry, looked up): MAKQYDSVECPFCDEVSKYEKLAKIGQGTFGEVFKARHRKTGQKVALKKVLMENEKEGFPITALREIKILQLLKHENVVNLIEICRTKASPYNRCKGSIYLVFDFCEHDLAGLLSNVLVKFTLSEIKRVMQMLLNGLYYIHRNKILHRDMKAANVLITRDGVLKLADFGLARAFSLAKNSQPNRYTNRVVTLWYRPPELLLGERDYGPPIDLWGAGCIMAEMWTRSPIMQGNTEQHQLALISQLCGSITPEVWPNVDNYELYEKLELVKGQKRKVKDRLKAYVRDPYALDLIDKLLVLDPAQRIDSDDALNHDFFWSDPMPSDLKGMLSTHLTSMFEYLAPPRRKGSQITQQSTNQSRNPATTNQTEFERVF

With CCCC(C(=O)c1ccc(O)c(O)c1)N1CCCC1 (stereo not shown) the plasma concentration was 14.4 ± 1.3 ng/mL (LC-MS/MS; rat, trunk blood plasma; subcutaneous, 1 mg/kg MDPV, 240 min).
The AUC(0-t) of OCc1ncc2n1-c1ccc(Cl)cc1C(c1ccccc1F)=NC2 is reported as 43 ng·h/mL (human, plasma; oral, 7.5 mg of midazolam, day 26, arithmetic mean, no amenamevir).
With O=C(Nc1cccc(Cl)c1)C1CCCN(Cc2cccc(-c3ccc(F)cc3F)c2)C1 (stereo not shown) the maximum response was -9.46% (Vero-E6; CellTiter-Glo ATP; 72 h, first round 5-point; baseline: DMSO 0%, hyamine -100%, more negative, more toxic).
C[C@H]1CN(c2n[nH]c3nc(N[C@H]4CC[C@H](NS(=O)(=O)CCC(F)(F)F)CC4)ncc23)CCO1 gave a remaining binding of 0.98 (CDK9 (Homo sapiens, UniProt P50750); Kinobeads competition; HEK293, K562, placenta lysate; 0.8 µM, unit not given; baseline: vehicle).
CC[C@H](C)[C@@H]1NC(=O)[C@@H]2CCCN2C(=O)[C@H](CC(C)C)NC(=O)[C@H](CC(C)C)NC(=O)CNC(=O)[C@@H](NC(=O)[C@@H](NC(=O)[C@H](CC(=O)O)NC(=O)CNC(=O)[C@@H](NC(=O)[C@H](C)NC(=O)CNC(=O)[C@H](CCCCN)NC(=O)[C@H](CC(C)C)NC(=O)[C@H](CC(C)C)NC(=O)[C@H](CCCCN)NC(=O)CNC(=O)[C@@H](NC(=O)[C@@H](N)CC(C)C)C(C)C)C(C)C)C(C)C)CSSC[C@@H](C(=O)O)NC1=O: “log2 fold change” 0.687 (RNA-seq, measured: Cdh8; mouse, traumatic brain injury model, frontal cortex and hippocampus; dose not given; baseline: TBI alone).
CC(=O)O[C@H]1C=C[C@H]2[C@H]3Cc4ccc(O)c5c4[C@@]2(CCN3C)[C@H]1O5 gave an AUC(0-inf) of 1150 ± 169 ng·h/mL (LC-MS/MS; male Sprague-Dawley rat, whole blood; intraperitoneal, 10 mg/kg of heroin).
For CN1CC[C@@H](c2c(O)cc(O)c3c(=O)cc(-c4ccc(C(F)(F)F)cc4Cl)oc23)[C@@H]1CO, “patients with adverse event” read 50% (measured: Anemia; AML; oral, 150 mg, intermittent dosing).
With Cc1ncc2n1-c1ccc(Cl)cc1C(c1ccccc1F)=NC2 the Tmax was 60 min (healthy volunteers, plasma; oral, 5 mg, day 11, added: momelotinib, once daily 200 mg, days 4-11).
Under “metabolite peak area share”, C#Cc1ccc2c(c1)C(c1ccccn1)=NCc1c(-c3cnco3)ncn1-2 is recorded as 81.5% (Sprague-Dawley rat hepatocytes; 2 µM, 4 h, 37 °C).
For COc1ccc2c3c1O[C@H]1[C@@H](O)CC[C@@]4(O)[C@@H](C2)N(C)CC[C@]314, “Δlog K, 14-hydroxylation effect” read 0.5 log units (pH-potentiometric titration; baseline: O-methyl derivative).
The IC50 of COc1cc(Nc2ncc(F)c(Nc3ccc4c(n3)NC(=O)C(C)(C)O4)n2)cc(OC)c1OC is reported as > 10 µM (TACR3 (Homo sapiens, UniProt P29371)).
O=C(O)CCC(CP(=O)(O)O)C(=O)O (stereo not shown) gave a CL/F of 7.93 mL/min/kg (Wistar rat, male, plasma; ip, 100 mg/kg).
CC[C@H](C)[C@H](NC(=O)[C@H](Cc1ccccc1)NC(=O)[C@H](CCC(=O)O)NC(=O)[C@H](CCCNC(=N)N)NC(=O)[C@H](C)NC(=O)[C@H](C)NC(=O)[C@H](CCC(N)=O)NC(=O)[C@H](CCC(=O)O)NC(=O)[C@H](CCC(=O)O)NC(=O)[C@H](CC(C)C)NC(=O)[C@H](Cc1ccc(O)cc1)NC(=O)[C@H](CO)NC(=O)[C@H](CO)NC(=O)[C@@H](NC(=O)[C@H](CC(=O)O)NC(=O)[C@H](CO)NC(=O)[C@@H](NC(=O)[C@H](Cc1ccccc1)NC(=O)[C@@H](NC(=O)CNC(=O)[C@H](CCC(=O)O)NC(=O)[C@H](C)NC(=O)CCc1c[nH]cn1)[C@@H](C)O)[C@@H](C)O)C(C)C)C(=O)N[C@@H](C)C(=O)N[C@@H](Cc1c[nH]c2ccccc12)C(=O)N[C@@H](CC(C)C)C(=O)N[C@H](C(=O)N[C@@H](CCCNC(=N)N)C(=O)NCC(=O)N[C@@H](CCCNC(=N)N)C(=O)N[C@@H](CCCCNC(=O)COCCOCCNC(=O)COCCOCCNC(=O)CC[C@H](NC(=O)CCCCCCCCCCCCCCCCC(=O)O)C(=O)O)C(=O)NCC(=O)NCC(=O)N[C@@H](CO)C(=O)N[C@@H](CCCCNc1c(NCCCCCN(O)C(=O)CCC(=O)NCCCCCN(O)C(=O)CCC(=O)NCCCCCN(O)C(C)=O)c(=O)c1=O)C(=O)O)C(C)C [zirconium-89 labelled] gave a tissue uptake of 0.02 %ID/g (rat, brain; iv, 3 nmol/kg, 24 h, ex vivo).
CO[C@H]1C[C@@H]2CC[C@@H](C)[C@@](O)(O2)C(=O)C(=O)N2CCCC[C@H]2C(=O)O[C@H]([C@H](C)C[C@@H]2CC[C@@H](OC(=O)NCCOCCOCCOCCOCCOCCOCCOCCOCCC(=O)N3CCc4cc(Cn5nc(-c6ccc7oc(N)nc7c6)c6c(N)ncnc65)ccc4C3)[C@H](OC)C2)C[C@@H](O)[C@H](C)/C=C(\C)[C@@H](O)[C@@H](OC)C(=O)[C@H](C)C[C@H](C)/C=C/C=C/C=C/1C: “any TEAE incidence” 100% (phase 1 dose escalation; advanced solid tumour patients; intravenous, 16 mg weekly, grade ≥3).
COc1cccc(C2(O)CCCCC2CN(C)C)c1 (stereo not shown) has a Kt of 0.0346 L/h (joint PK model; human, whole blood; oral, two-compartment metabolite model).
O=C1c2c(O)c(=O)ccn2N([C@@H]2c3ccccc3SCc3c2ccc(F)c3F)[C@@H]2COCCN12 gave a trough concentration of 1.12 ng/mL (BALB/c mouse; subcutaneous, 0.25 mg/kg q12h).
CCC(CC)COC(=O)[C@H](C)N[P@](=O)(OC[C@H]1O[C@@](C#N)(c2ccc3c(N)ncnn23)[C@H](O)[C@@H]1O)Oc1ccccc1: “participants with hot flush” 0% (human; intravenous, 100 mg).
Under “List of Complaints score”, CCN(CC)C(=O)[C@@H]1C=C2c3cccc4[nH]cc(c34)C[C@H]2N(C)C1 is recorded as 3 (measured: hypersensitivity to odours; healthy volunteers; dose not given, 0 to 12 h; baseline: placebo, direction not given).
The V4/F of Cc1ncc(OC[C@@]2(c3cccc(F)c3)C[C@H]2C(=O)Nc2ccc(F)cn2)c(C)n1 is reported as 845 L (population PK base model; human, plasma; oral).
C[C@@H](O)[C@@H](CO)NC(=O)[C@@H](CCCNC(=N)N)NC(=O)[C@@H]1CCCN1C(=O)[C@@H]1CSSC[C@H](NC(=O)[C@H](Cc2ccccc2)NC(=O)CN2CCN(CC(=O)O)CCN(CC(=O)O)CCN(CC(=O)O)CC2)C(=O)N[C@@H](Cc2ccc(O)cc2)C(=O)N[C@@H](Cc2ccccc2)C(=O)N[C@@H](CCC(N)=O)C(=O)N[C@@H](CC(N)=O)C(=O)N1 [gallium-68 labelled] has a tissue uptake of 0.08 %ID/g (healthy Wistar rat, lungs; intravenous, 8 MBq, 120 min, individual animals).
For CN/C(=N\[N+](=O)[O-])NCc1cnc(Cl)s1, the recovery was 33% (soil; 28 days, nominal 0.12).
With CCCC(C(=O)c1ccc(O)c(OC)c1)N1CCCC1 (stereo not shown) the brain-to-plasma ratio was 0.3 ± 0.1 (rat; subcutaneous, 2 mg/kg MDPV, 40 min).
For Cc1ncc2n1-c1ccc(Cl)cc1C(c1ccccc1F)=NC2, “mean residence time” read 0.605 ± 0.175 h (wild-type mice, plasma; intravenous, 0.3 mg/kg, added: 3-day PB, BC 500 mg/kg and PCN 10 mg/kg).
CCOc1ccc(NC(=O)c2cnn(-c3ccc(C)c(Cl)c3)c2C2CCNCC2)cc1 has a maximum response of -9.03% (Vero-E6; CellTiter-Glo ATP; 72 h, retest 8-point duplicates; baseline: DMSO 0%, hyamine -100%, more negative, more toxic).
COC(=O)[C@H]1[C@@H](OC(=O)c2ccccc2)C[C@@H]2CC[C@H]1N2C gave an AUC(0-inf) of 761 ± 45.2 ng·h/mL (LC-MS/MS; Sprague-Dawley rat, male, whole blood; intraperitoneal, 20 mg/kg).
OCc1ncc2n1-c1ccc(Cl)cc1C(c1ccccc1F)=NC2 has an AUCinf decrease of 16% (healthy volunteers, plasma; dose not given, added: momelotinib multiple-dose; baseline: compound alone).
The rotarod latency of C/C=C1/CN2CC[C@]34C(=C(C(=O)OC)[C@H]1C[C@H]23)Nc1ccc(I)cc14 is reported as ~65% (CD-1 mouse; subcutaneous, 5 mg/kg, 10 min; baseline: baseline).
For OCc1ncc2n1-c1ccc(Cl)cc1C(c1ccccc1F)=NC2, the Tmax was 8.3 ± 2.9 min (measured: 1'-hydroxymidazolam; wild-type mice, plasma; iv, 500 mg/kg, 14 days, added: midazolam 0.3 mg/kg).
For CN(C)C[C@H]1CCCC[C@]1(O)c1cccc(O)c1, “metabolite peripheral volume” read 0.561 L (joint PK model; human; dose not given, two-compartment metabolite model).
Cc1ncc2n1-c1ccc(Cl)cc1C(c1ccccc1F)=NC2 — result for “adverse event Somnolence”: 21.7% (healthy humans; oral, dose not given).
Under “grade 3 ALP elevation”, COc1cc2c(Oc3ccc4[nH]c(C)cc4c3F)ccnc2cc1OCC1(N)CC1 is recorded as 0% (paediatric recurrent refractory sarcoma; 12 mg).
C[C@]12CC[C@H]3[C@@H](CCC4=CC(=O)CC[C@@]43C)[C@@H]1CC[C@@H]2O gave a recovery of 88.6% (lipid PAMPA; artificial lipid membrane; 10 µM, 16 h).
For CN1CC[C@]23c4c5ccc(O)c4O[C@H]2[C@@H](O[C@@H]2O[C@H](C(=O)O)[C@@H](O)[C@H](O)[C@H]2O)C=C[C@H]3[C@H]1C5, the AUC(0-inf) was 12 ± 3.17 ng·h/mL (LC-MS/MS; male Sprague-Dawley rat, whole blood; intraperitoneal, 10 mg/kg of heroin).
CCCC(C(=O)c1ccc2c(c1)OCO2)N1CCCC1.Cl (racemic) gave a brain-to-plasma ratio of 12.1 ± 1 (rat; subcutaneous, 2 mg/kg, 40 min).

Excerpt of the above:
With O=C(Nc1cccc(Cl)c1)C1CCCN(Cc2cccc(-c3ccc(F)cc3F)c2)C1 (stereo not shown) the maximum response was -9.46% (Vero-E6; CellTiter-Glo ATP; 72 h, first round 5-point; baseline: DMSO 0%, hyamine -100%, more negative, more toxic).
C[C@H]1CN(c2n[nH]c3nc(N[C@H]4CC[C@H](NS(=O)(=O)CCC(F)(F)F)CC4)ncc23)CCO1 gave a remaining binding of 0.98 (CDK9 (Homo sapiens, UniProt P50750); Kinobeads competition; HEK293, K562, placenta lysate; 0.8 µM, unit not given; baseline: vehicle).
CC[C@H](C)[C@@H]1NC(=O)[C@@H]2CCCN2C(=O)[C@H](CC(C)C)NC(=O)[C@H](CC(C)C)NC(=O)CNC(=O)[C@@H](NC(=O)[C@@H](NC(=O)[C@H](CC(=O)O)NC(=O)CNC(=O)[C@@H](NC(=O)[C@H](C)NC(=O)CNC(=O)[C@H](CCCCN)NC(=O)[C@H](CC(C)C)NC(=O)[C@H](CC(C)C)NC(=O)[C@H](CCCCN)NC(=O)CNC(=O)[C@@H](NC(=O)[C@@H](N)CC(C)C)C(C)C)C(C)C)C(C)C)CSSC[C@@H](C(=O)O)NC1=O: “log2 fold change” 0.687 (RNA-seq, measured: Cdh8; mouse, traumatic brain injury model, frontal cortex and hippocampus; dose not given; baseline: TBI alone).
